# Experimental data pooled from the literature.
# Each line is one published result; not all experiments were run side by side.
# EGFR: Epidermal growth factor receptor (EGFR, Homo sapiens, UniProt P00533)
# EGFR L858R: Epidermal growth factor receptor (EGFR, Homo sapiens, UniProt P00533, L858R)
Compound,target,test,conditions,how to read,measurement,result
COc1cc(N2CCN(C)CC2)ccc1Nc1nc(N)n(C(=O)NCc2c(Cl)cccc2Cl)n1,"Epidermal growth factor receptor (EGFR, Homo sapiens, UniProt P00533, del747-752/P753S)",enzyme activity,10 µM,baseline: control,remaining activity,9.6%
COc1ccc(-c2nn(-c3ccc(S(C)(=O)=O)cc3)cc2/C=N/N=c2\[nH]c(-c3ccc(Br)cc3)cs2)cc1,EGFR,"kinase activity, inhibitor",10 µM,,inhibition,86%
C=CC(=O)N1CCC(C(=O)NCC(=O)N2CCN(c3nc(-c4cnc(N)nc4C(F)F)nc(N4CCOCC4)n3)CC2)CC1,EGFR,KINOMEscan,1 µM,,remaining binding,100%
CC(C)Cc1ccc(-c2nn(-c3ccc(S(C)(=O)=O)cc3)cc2/C=N/N=c2\[nH]c(-c3ccc([N+](=O)[O-])cc3)cs2)cc1,EGFR L858R,"kinase activity, inhibitor",1 µM,,inhibition,73%
CCOc1cc(N2CCN(C)CC2)ccc1Nc1nc(N)n(C(=O)NCc2ccccc2S(=O)(=O)C(C)C)n1,"Epidermal growth factor receptor (EGFR, Homo sapiens, UniProt P00533, G719C)",enzyme activity,10 µM,baseline: control,remaining activity,0.6%
C[C@@H](c1ccc(-n2cnc3c(N)ncnc32)cc1)N1CCc2nn(C)c(Cc3ccccc3)c2C1=O,"Epidermal growth factor receptor (EGFR, Homo sapiens, UniProt P00533, A750P/del747-749)",KINOMEscan,0.1 µM,baseline: DMSO control,remaining binding,99%
COc1ccc(-c2nn(-c3ccc(S(C)(=O)=O)cc3)cc2C=N/N=c2\[nH]c(-c3ccc([N+](=O)[O-])cc3)cs2)cc1,EGFR L858R,"kinase activity, inhibitor",10 µM,,inhibition,88.9%
COc1cc(N2CCN(C)CC2)ccc1Nc1nc(N)n(C(=S)NCc2c(Cl)cccc2Cl)n1,"Epidermal growth factor receptor (EGFR, Homo sapiens, UniProt P00533, L858R/T790M)",enzyme activity,10 µM,baseline: control,remaining activity,0.8%
C=CC(=O)N1CCC(COCC(=O)N2CCN(c3nc(-c4cnc(N)nc4C(F)F)nc(N4CCOC[C@@H]4C)n3)CC2)CC1,"Epidermal growth factor receptor (EGFR, Homo sapiens, UniProt P00533, L861Q)",KINOMEscan,1 µM,baseline: DMSO control,remaining binding,100%
O=C(NC1CCC1)c1ccc2nc(-c3cccc(NS(=O)(=O)NCCN4CCCCC4)c3)cn2c1,"Epidermal growth factor receptor (EGFR, Homo sapiens, UniProt P00533, del752-759)",enzyme activity,10 µM,,remaining activity,100%
